Measurements gathered from unrelated publications.
A part holds a random share of what one study measured.

Set 1
Target: Centromere-binding protein 1, full length, His-tagged (CBF1, Saccharomyces cerevisiae, UniProt P17106, residues 1-351)
Sequence of UniProt P17106 (whole entry, looked up): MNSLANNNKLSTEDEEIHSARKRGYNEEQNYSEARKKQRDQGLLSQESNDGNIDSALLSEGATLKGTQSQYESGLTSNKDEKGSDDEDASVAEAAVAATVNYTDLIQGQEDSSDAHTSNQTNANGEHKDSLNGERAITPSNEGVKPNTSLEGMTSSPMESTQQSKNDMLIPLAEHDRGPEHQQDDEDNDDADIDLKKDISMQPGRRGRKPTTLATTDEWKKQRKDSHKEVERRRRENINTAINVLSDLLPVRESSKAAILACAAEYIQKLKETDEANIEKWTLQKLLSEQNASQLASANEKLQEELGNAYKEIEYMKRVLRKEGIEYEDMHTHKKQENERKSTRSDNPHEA
Technique: competition protein-binding microarray
Form: double-stranded DNA, one strand shown
Medium: in vitro
Concentration: 2 µM
Setting: whole 60-bp probe, lowest competitor level
With: Pho4 competitor, 0.05 µM
Direction: higher = stronger binding
The fluorescence intensity of `CTTCCAAATGATGTTTTCGTGCGATAACTTAAGTATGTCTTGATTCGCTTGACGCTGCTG` is reported as 85.4 a.u.
`AAACAAATGGCAGTCCATGTGAAAAGCTGAGACAAAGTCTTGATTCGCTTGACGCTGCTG` gave a fluorescence intensity of 75 a.u.
For `GAGAGAATGAACCATCACGTGTGAACCCAAAAGGCCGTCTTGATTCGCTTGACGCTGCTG`, the fluorescence intensity was 2250 a.u.
For `CTGCAAGGAAGTTTAAGCGTGGGTAACTTTGCTAGGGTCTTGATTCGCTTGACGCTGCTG`, the fluorescence intensity was 70.2 a.u.
`GTCTTGTCTCATTGTCCCGTGGGTGTCCCCACTTCAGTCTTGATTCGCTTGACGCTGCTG` gave a fluorescence intensity of 114 a.u.
`ATATATATTTCATTGAATGGATATATGAAACGTTTAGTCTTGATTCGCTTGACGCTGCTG` gave a fluorescence intensity of 126 a.u.
For `CATACCCAACCTTGTCACCTGACTTAAGATATTTGTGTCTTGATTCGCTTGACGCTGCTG`, the fluorescence intensity was 2080 a.u.
`AACTGCGACCGACACAGCGTGCGATACTAGGGAAGTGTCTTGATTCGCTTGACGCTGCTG` gave a fluorescence intensity of 64 a.u.
`CTGGCGTACGACATGAACGTGGTGAGCTCTCTTGTGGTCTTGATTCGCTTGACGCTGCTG` gave a fluorescence intensity of 86.5 a.u.
`AACCTAAAACGACTTTGTGTGACGCCGAAGAGAAAGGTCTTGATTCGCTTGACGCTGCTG` has a fluorescence intensity of 80.1 a.u.
`ACCAAGCATCAACACCATGTGCATACCATACCGCTAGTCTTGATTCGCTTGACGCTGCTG` has a fluorescence intensity of 144 a.u.
The fluorescence intensity of `ACTGGTTACGATGATAACGAGCACTATGTTTCCCCCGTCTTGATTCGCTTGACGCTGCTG` is reported as 89 a.u.
`CTAACGAAGGTTTGTCGTGTGGGTGACAAGCCAAGTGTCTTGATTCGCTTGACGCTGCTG` gave a fluorescence intensity of 65.4 a.u.
`AATAATATATCTCACCACGTGGGACATTGGGCACTTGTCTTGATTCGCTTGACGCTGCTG` gave a fluorescence intensity of 1300 a.u.
The fluorescence intensity of `TTTACAATTCCAAACCATGTGATGCTTGTCAGAGGGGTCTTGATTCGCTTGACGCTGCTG` is reported as 909 a.u.
For `AAAGCGGTAATTTGCTATGTGGGTGCAGATATCTATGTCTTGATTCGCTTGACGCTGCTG`, the fluorescence intensity was 77.5 a.u.
The fluorescence intensity of `CCAATGTACTTAAAGCACGATATCGACGCTCCTAAGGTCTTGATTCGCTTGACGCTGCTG` is reported as 72.9 a.u.
For `ATGAGATACTTGAAACACGTTTCAAGAAGATTCAAGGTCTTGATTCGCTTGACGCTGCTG`, the fluorescence intensity was 107 a.u.
`TGCGCAACAACTTGAATTGTGGGTGTATGTCTAGAAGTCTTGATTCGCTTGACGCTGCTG` has a fluorescence intensity of 69 a.u.

Set 2
Target: Histone acetyltransferase KAT6A, both winged helices, GST fusion (KAT6A, Homo sapiens, UniProt Q92794, residues 1-181)
Technique: protein binding microarray
Form: double-stranded DNA, one strand shown
Medium: in vitro
Concentration: not given
Setting: 8-mer, flanks averaged, mean of 2 arrays, mostly near background
Reference: not given
Direction: higher = stronger binding
Construct (chain): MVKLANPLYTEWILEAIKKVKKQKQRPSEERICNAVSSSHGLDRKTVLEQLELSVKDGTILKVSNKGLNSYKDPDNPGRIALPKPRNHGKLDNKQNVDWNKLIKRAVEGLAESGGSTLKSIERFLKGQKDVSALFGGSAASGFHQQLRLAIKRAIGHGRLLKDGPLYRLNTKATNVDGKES
`CCCGCCCC` has an E-score of 0.25.
`AAACATCC` has an E-score of 0.0564.
For `GCAGCGCC`, the E-score was 0.246.
The E-score of `CTCCCACA` is reported as -0.103.
For `AAGACCGA`, the E-score was 0.137.
With `CGATGATA` the E-score was 0.134.
The E-score of `GTAAGTAC` is reported as 0.0633.
With `GCTGACGA` the E-score was -0.054.
With `ATAAGATG` the E-score was -0.159.
For `GTCAGGTA`, the E-score was 0.037.
`TCCGACCA` has an E-score of 0.182.
The E-score of `ACGGTCAC` is reported as 0.1.
`GCAATACC` gave an E-score of 0.0414.
`AATACGGG` has an E-score of 0.14.
`GGCTATAA` has an E-score of 0.0193.
With `CCCTTAAG` the E-score was -0.0942.
`CTTAAAAA` gave an E-score of -0.172.
With `GTTTAATA` the E-score was -0.0329.
The E-score of `CGCTACAC` is reported as 0.135.
For `CCACCCAC`, the E-score was -0.296.
`GGTTAACC` has an E-score of -0.0223.
`CATTCCAA` has an E-score of -0.0378.
With `CCGAAAGA` the E-score was -0.0569.
The E-score of `ACAATACG` is reported as 0.0916.
The E-score of `CTGAACTA` is reported as -0.00997.

Set 3
Target: RNA binding protein fox-1 homolog 2, RRM domain, GST-SBP tag (RBFOX2, Homo sapiens, UniProt O43251-10, residues 100-194)
Technique: RNA Bind-n-Seq
Form: RNA
Medium: in vitro
Concentration: 365 nM
Setting: natural RNA segment, single round, ends assumed
Reference: no-protein control
Direction: higher = stronger binding
Target sequence (chain): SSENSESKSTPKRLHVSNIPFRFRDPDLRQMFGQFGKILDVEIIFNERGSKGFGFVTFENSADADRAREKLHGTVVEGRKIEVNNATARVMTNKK
`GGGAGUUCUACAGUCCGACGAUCUCUUUUGCAGCCGUCUGGGCCGCUUCUCGGUGAGCCGCGGUAGGCGUGGCUGCACGGAGUCACAAGCCUCUUGACAUGUUAGCCAUUUCCAGCGUCCUAACUGACUGUAAUGGAAUUCUCGGGUGCCAA` — result for “RBNS enrichment (R)”: 0.202.
`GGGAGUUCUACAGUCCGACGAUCUUCACAGCAGGCCAGCUGCAGUGACUUGUCAUCAAGAGUCACCUCAGCUGCGCCCCCCUCCCAUCCUUUCCUAUGAGAAGCCACUGCUUUGGGGGCGCCGGCUAGAAAAAUGGAAUUCUCGGGUGCCAA` — result for “RBNS enrichment (R)”: 0.275.
`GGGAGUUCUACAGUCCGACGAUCCCCUGCUUUCUCUUUUCUUUGACUUAACAUUGGUUUCUGAAAGAAUCUUUGCUACCUAGAACCUGCAGUCUGUUUUAUGGCAACACUGGAUAAUGGCUUUUUGAAAUUGAUGGAAUUCUCGGGUGCCAA` — result for “RBNS enrichment (R)”: 0.596.
`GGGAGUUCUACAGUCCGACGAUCAACUGCAGAGGGGGCUCCUUGAGUUCUGUCUGCACAAGAAACUGCACUGCAAGUUUUGAAGGAGUCAGUAGCCAUUAAACCUAAAUUUAAUUUAUUUUAUUAAAAUAACAUGGAAUUCUCGGGUGCCAA` — result for “RBNS enrichment (R)”: 0.539.
Under “RBNS enrichment (R)”, `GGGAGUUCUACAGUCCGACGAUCUAUGCAACAACUCCUGUACCCCAGUCCACGGUGUUCUGGCAGCAGGGACACCUGGGCCAAUGGGCCAUCUGGACCAAAGGUGGGGUGUGGGGCCCUGGAUGGCAGCUCUGUGGAAUUCUCGGGUGCCAA` is recorded as 0.381.
Under “RBNS enrichment (R)”, `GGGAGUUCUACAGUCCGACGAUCAAUAAAUGUUUACAAUUUUAUAUUGAAGAUGGAAUAAGUGUUAGAGCGUCCAACUGUAUAUUUUUUACUUUUAUAGAUUUUAAAACUGAUCCUUUAUAUGUGUUUGGAGCUGGAAUUCUCGGGUGCCAA` is recorded as 0.986.
Under “RBNS enrichment (R)”, `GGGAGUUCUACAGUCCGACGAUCUAUAAUUUUUAAAAAAUCUUUUAUUUUAAUACAUUGUAGGAAAUCUUCAUAAUUUGAGACAGUUCUGCAGCAUGGCUUUUUACAUCUGUAAAUAAAUAAUUUUAGAAGUCUGGAAUUCUCGGGUGCCAA` is recorded as 2.08.
`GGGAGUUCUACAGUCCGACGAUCACUAGAGGUUGCUAAUCAGCAUGUUUUAGCCCAAGUCCGCCUUCCUGCUGUGGUUAACCUGUUAUGUUGCUUUUGGAAGGAGACUCUAAGACAGGGAAAGCAAGUUCAUGUGGAAUUCUCGGGUGCCAA`: “RBNS enrichment (R)” 17.1.

Set 4
Target: Interferon regulatory factor 5, full length, phosphomimetic (IRF5, Homo sapiens, UniProt Q13568-2, residues 1-514, K96S/S451D/S453D/S456D/S462D)
Technique: protein-binding microarray
Form: double-stranded DNA, one strand shown
Medium: in vitro
Concentration: 250 nM
Setting: 60-bp whole probe
With: salmon DNA 0.4 mg/ml
Reference: random background probes
Direction: higher = stronger binding
All sequences stand within: GCCTAGCAC … GTCTTGATTCGCTTGACGCTGCTG
The log fluorescence of `TTTTTTTTATCAATCATTTTGTGCTAG` is reported as 1.62 z-score.
`TCAATATTGAGACTCATACTGTGCTAG` gave a log fluorescence of 0.41 z-score.
`CTAGATTTCAGTTCCGATTAGTGCTAG` gave a log fluorescence of 2.82 z-score.
The log fluorescence of `GACGGTTTCAGTCTCGAGACGTGCTAG` is reported as 3.54 z-score.
For `TTAGGTTTCGGTATTGGTTAGTGCTAG`, the log fluorescence was 10.2 z-score.
`GACGGACTGGGGTATCGGGATGTGCTA` has a log fluorescence of 0.24 z-score.
`TCAACTTTCCATTTCTGACTGTGCTAG` has a log fluorescence of 1.82 z-score.
`TTAGGACTGGACTATCAGTTAGTGCTA` has a log fluorescence of 0.839 z-score.
The log fluorescence of `TACTTTCTACTTCTCTTTTTGTGCTAG` is reported as 6.31 z-score.
`TTAGAACTGGAGTATCGATTAGTGCTA` gave a log fluorescence of 4.91 z-score.
With `TTAGGACTGGGATTCGGTTAGTGCTAG` the log fluorescence was 0.226 z-score.
For `TCAGTTCTCCCTTTCAGACTGTGCTAG`, the log fluorescence was 0.577 z-score.
With `GACGATCTCAGTCTCGAGAAGTGCTAG` the log fluorescence was 0.037 z-score.
With `TTAGGTTTCCAACTGCTTTAGTGCTAG` the log fluorescence was 0.196 z-score.
With `TCATGCTTAGTATTTTTTACTGTGCTA` the log fluorescence was 0.669 z-score.
The log fluorescence of `TTGGATTTCAGTTCCGATTAGTGCTAG` is reported as 2.41 z-score.
The log fluorescence of `TGGTCTCTAGTTAGAGAACTGTGCTAG` is reported as 0.0701 z-score.
The log fluorescence of `TTAGGACTGGAGTATCGGTTAGTGCTA` is reported as 5.16 z-score.
With `TTAGGTCTCAGTCTCGGTTAGTGCTAG` the log fluorescence was 0.717 z-score.

Excerpt of the above (set 1):
`ACCAAGCATCAACACCATGTGCATACCATACCGCTAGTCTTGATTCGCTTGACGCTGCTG` has a fluorescence intensity of 144 a.u.
The fluorescence intensity of `ACTGGTTACGATGATAACGAGCACTATGTTTCCCCCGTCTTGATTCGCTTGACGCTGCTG` is reported as 89 a.u.
`CTAACGAAGGTTTGTCGTGTGGGTGACAAGCCAAGTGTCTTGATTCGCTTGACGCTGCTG` gave a fluorescence intensity of 65.4 a.u.
`AATAATATATCTCACCACGTGGGACATTGGGCACTTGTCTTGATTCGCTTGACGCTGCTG` gave a fluorescence intensity of 1300 a.u.
The fluorescence intensity of `TTTACAATTCCAAACCATGTGATGCTTGTCAGAGGGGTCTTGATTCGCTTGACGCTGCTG` is reported as 909 a.u.
For `AAAGCGGTAATTTGCTATGTGGGTGCAGATATCTATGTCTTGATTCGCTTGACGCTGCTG`, the fluorescence intensity was 77.5 a.u.
